Measured values collected from several papers.
Protocols differ between the studies behind these lines. Numbers after ± are the reported error.

For CCCC(CCC(=O)O)NC(=O)c1ccc2c(c1)OCO2 (centres unmarked), the Tmax was 1.75 h (male Sprague-Dawley rat, plasma; oral, 50 mg/kg of parent drug).
Cc1noc(C)c1Cn1cc(N2C(=O)CN(Cc3cccc(O[C@@H]4O[C@H](C(=O)O)[C@@H](O)[C@H](O)[C@H]4O)c3)C2=O)cn1 gave a Tmax of 1 h (rat Sprague-Dawley male, plasma; oral, 10 mg/kg of parent drug).
The Tmax of N[C@@H](COc1ccccc1C(F)(F)F)c1ccccc1 is reported as 1.5 h (male Sprague-Dawley rat; oral, 25 mg/kg).
With Cc1ccc(OCC(=O)O)cc1 the Tmax was 3 h (Sprague-Dawley rat, male, plasma; oral, 100 mg/kg/day of parent drug, day 1, 90-day repeated dosing).
O=C(O)CN1CCN(CC(=O)O)CCN(C(CCC(=O)NCc2ccc(NC(=S)NCCOCCOCCOCCNC(=O)CCCc3ccc(I)cc3)cc2)C(=O)O)CC1 (centres unmarked) gave a Tmax of 1.25 h (dynamic PET/CT; Sprague-Dawley rats female, lumbar spinal canal L1-L2; intrathecal lumbar infusion, median).
With CCCC(CCC)NC(=O)c1ccc(OS(=O)(=O)O)c(OC)c1 the Tmax was 1 h (male Sprague-Dawley rat, plasma; oral, 20 mg/kg of parent drug).
Cc1noc(C)c1Cn1cc(N2C(=O)CN(Cc3cccc(OS(=O)(=O)O)c3)C2=O)cn1 has a Tmax of 0.5 h (rat Sprague-Dawley male, plasma; oral, 30 mg/kg of parent drug).
For COC(=O)/C=C/C(=O)c1ccc(OC)cc1, the Tmax was 0.63 ± 0.49 h (Sprague-Dawley rat, both sexes, plasma; oral, 100 mg/kg).

Repeated from above:
For CCCC(CCC(=O)O)NC(=O)c1ccc2c(c1)OCO2 (centres unmarked), the Tmax was 1.75 h (male Sprague-Dawley rat, plasma; oral, 50 mg/kg of parent drug).
